Assay results gathered from unrelated publications.
Parts stem from different laboratories: compare values within a part only. Changes are numbered by the printed parent chain.

Study 1
Target: PABPC1L2, full length, GST fusion (mouse, UniProt A0ABA7IW68)
Technique: RNAcompete
Form: RNA
Sample: in vitro
Tested at: 20 nM
Notes: 7-mer, probes averaged, single round
Relative to: mean of 7-mers
Reading: higher = stronger binding
Residues (chain): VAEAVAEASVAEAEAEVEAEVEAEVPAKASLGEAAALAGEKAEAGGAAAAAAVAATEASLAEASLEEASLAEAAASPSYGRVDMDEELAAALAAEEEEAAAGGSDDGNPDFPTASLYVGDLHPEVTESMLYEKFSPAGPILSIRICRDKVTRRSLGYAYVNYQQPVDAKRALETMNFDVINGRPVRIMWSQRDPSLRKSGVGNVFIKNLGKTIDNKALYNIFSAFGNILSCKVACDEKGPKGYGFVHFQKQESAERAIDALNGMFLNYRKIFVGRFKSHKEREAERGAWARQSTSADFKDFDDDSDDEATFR
Sequence | 7-mer Z-score
AGGGAGU | 0.0678
CUAUUCG | -0.391
AUGAUCG | -0.15
UUACAAA | 1.36
AGAUCGC | -0.391
UAUCAUG | -0.00833
AUUUGGC | -0.195
UAAUAAC | -0.0283
CUACAGC | -0.382
CCAUCGG | -0.249
UCGUGGG | -0.113
GCAGAUG | 0.00254
UGACCGA | -0.00289
GAGUUCA | -0.204
ACCAUUC | -0.289
CGGAUCG | -0.164
CAUGAUA | 0.0859
GUCACGU | -0.22
ACCCUUC | -0.412
CCGACCU | -0.237
AUAGUAG | -0.166
GUAGAGU | -0.175
UUACAGC | -0.188
GUUCCGC | -0.336
UCGUAAG | -0.32

Study 2
Target: RING finger protein unkempt homolog, zinc fingers 1-6, GST-SBP tag (UNK, Homo sapiens, UniProt Q9C0B0, residues 30-357)
Technique: RNA Bind-n-Seq
Form: RNA
Sample: in vitro
Tested at: not given
Notes: RNA with constant flanks, human-mouse chimeric sites, ends assumed
Relative to: input RNA pool
Reading: higher = stronger binding
Target sequence (chain): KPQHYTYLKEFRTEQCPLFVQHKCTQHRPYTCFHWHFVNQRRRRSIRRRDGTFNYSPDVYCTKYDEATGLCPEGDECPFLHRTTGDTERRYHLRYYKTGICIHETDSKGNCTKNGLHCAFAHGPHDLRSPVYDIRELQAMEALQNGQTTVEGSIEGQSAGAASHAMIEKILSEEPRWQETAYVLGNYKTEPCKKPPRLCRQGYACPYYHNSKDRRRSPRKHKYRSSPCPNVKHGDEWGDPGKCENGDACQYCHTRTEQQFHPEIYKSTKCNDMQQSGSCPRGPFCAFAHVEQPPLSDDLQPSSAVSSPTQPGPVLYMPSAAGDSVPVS
Sequence | bound/input enrichment
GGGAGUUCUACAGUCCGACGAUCCGCAGAAGGUUAAAGGGUGAGAGUGGGGUGGAAGACUGUGUCAUGGCUCUGGAGACAUUGUUUAGUGUCCUGCUUUCUCUGUGCAGACUGAUGGCCCCUUACACGCCCUUUCUGACUGAGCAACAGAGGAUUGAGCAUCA | 0.0816 ratio
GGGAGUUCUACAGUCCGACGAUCCCCUCCCGGGCCACCCAACCCCUCCCGGCUCCCCGCCAGAGCAAGGUUUUCUUCUUAUUUCAUAGCAAAUAAGAAAAAUGUUCUACGCACAUUUUGUCCUCAGUAAACGAGGGCCUCUGGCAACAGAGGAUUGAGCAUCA | 0.543 ratio
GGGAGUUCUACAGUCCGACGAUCAACAGAUUGUCUUUAAGGUCAACGUAGGAGAAUGCUGGGGUGAUCAUUGUUGCCCAUGUGCCUUCUGACUGAGCUUUAAUGCUGUUCAUCCUUGAUGCUUUCCUUCACUCCAGAAUUGUUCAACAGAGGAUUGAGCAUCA | 0.11 ratio
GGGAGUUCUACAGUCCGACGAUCUUCAAAGAAAAGGGCAGCUGUGUCAUUUCAUAAGUAACUCUGGGGGAGGGAAAUUCUAACUAGUUUGUUAAUUUUCCCCCAAAUGAAACCAACAUGCGUGUUGAAGAACUGAGAAAAAAUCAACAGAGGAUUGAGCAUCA | 0.282 ratio
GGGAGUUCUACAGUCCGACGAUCCUGUGUGUGCUGAAUAAAUGGCUUGUAAAGAAGUUUUUCCAAGCUGUACCCAUGUACUCCCUUAGAGUUGCUGCAAAAUGUUCUUCCUGAUAUUGAUUUUAUUUGUUAACUGAAGGUCUCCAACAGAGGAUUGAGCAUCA | 1.27 ratio
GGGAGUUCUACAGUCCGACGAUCCACGUGUCUGCAGUACUUGAUGUGGACUACUCUCCCACUGGGAAGGAAUUUGUGUCUGCCAGCUUUGAUAAAUCUAUUAGAAUCUUUCCUGUAGACAAGAGCCGAAGCAGGGAAGUGUAUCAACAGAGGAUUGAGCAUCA | 0.425 ratio
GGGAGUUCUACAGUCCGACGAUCGAUAAGAAAAGCUUGUUGGAGACCCGAUUGCAUGUCACUGGUAGAGACCUGAGGUGUAAAAUAGCUGAAACUUUCGGAUUUCAAGAAAAUUACAUCAAGAUCGUAAUAAAUAAGAAACAGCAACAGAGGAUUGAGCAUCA | 0.311 ratio
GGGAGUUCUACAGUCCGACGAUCGAGUCGAUUAUGGAAACAACAAUUCGUUAUCUUGCAGCCUCAGUGUUCACUUGCUUGGCGAUAGCAUUGGGGUUUUAUAGGUUCUGGAAGGAGAACUGACGAUGAUGUCCUGCUGUGUGCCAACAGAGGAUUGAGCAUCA | 0.143 ratio
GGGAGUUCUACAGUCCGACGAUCCACAGAGGAGAUCUGCUGUUCCUCACAAAUUUCCGGGAGGACCCCAUCAGAGCUGGUGAAAUAGUUGUUUUUAAGGUUGAAGGAAGAGACAUUCCAAUAGUUCACAGAGUAAUCAAGGUUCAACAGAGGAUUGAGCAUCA | 2.87 ratio
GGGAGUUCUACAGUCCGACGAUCCUCAGAGAUGUGGCAUAUCAGUAUGUGAAAAAGGGGGCUCGUAUAUUUGUGGAAGGGAAAGUGGACUAUGGUGAAUACAUGGAUAAAAAUAAUGUGAGGCGGCAAGCAACAACAAUCAUACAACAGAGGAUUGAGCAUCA | 0.398 ratio
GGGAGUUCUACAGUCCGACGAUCGCAGGAUCUUCUAAGUACCAGUGGGGCAUUAUGAAAUCCCUUGGGCUCUCUGAUGACGACAUAGUGAAAUUUUCUGAAGCAGAGCACUGGCUUGAUUAUUUCCCACCACUGGCCGUUCAGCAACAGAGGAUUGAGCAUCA | 0.193 ratio

Study 3
Target: CCNB1, cyclin fold, Cln2 fusion (human)
Technique: yeast growth competition, sequencing
Sample: yeast
Notes: strong parent motif
Relative to: not given
Reading: higher = stronger binding
Parent: DNAH7 docking peptide (human); HELFQRLDFDNDG; partner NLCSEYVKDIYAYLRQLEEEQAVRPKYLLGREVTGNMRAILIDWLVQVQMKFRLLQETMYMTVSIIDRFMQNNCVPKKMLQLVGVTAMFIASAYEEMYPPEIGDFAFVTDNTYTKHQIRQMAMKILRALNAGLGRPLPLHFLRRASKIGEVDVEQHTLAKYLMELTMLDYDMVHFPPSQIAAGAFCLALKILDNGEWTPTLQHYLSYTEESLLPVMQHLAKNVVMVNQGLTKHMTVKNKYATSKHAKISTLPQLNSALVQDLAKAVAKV
Substitution | normalised enrichment score
L3A | 0.476
G13A | 1.83
H1A | 1.55
F4A | 2.18
D8A | 0.597
D10A | 0.304

Study 4
Target: UBE2R2 UBC core domain (UniProt Q712K3)
Technique: yeast two-hybrid
Sample: yeast
Notes: mostly zero background
Relative to: not given
Reading: higher = stronger interaction
B1: PHF21A RING domain (UniProt Q96BD5); chain SPTSTDGDIHEDFCSVCRKSGQLLMCDTCSRVYHLDCLDPPLKTIPKGMWICPRCQDQMLKKEEAIPW
B2: ZNF598 RING domain (UniProt Q86UK7); chain AAAPERGGGSCVLCCGDLEATALGRCDHPVCYRCSTKMRVLCEQRYCAVCREELRQVVFGK
B3: TRIM69 RING domain (UniProt Q86WT6); chain VIQDITMELHCPLCNDWFRDPLMLSCGHNFCEACIQDFWRLQAKETFCPECKMLCQYNNCTF
B4: MID1 RING domain (UniProt O15344); chain METLESELTCPICLELFEDPLLLPCAHSLCFNCAHRILVSHCATNESVESITAFQCPTCRHVITLSQRGL
B5: RNF170 RING domain (UniProt Q96K19); chain TRQQFYTDMYCPICLHQASFPVETNCGHLFCGACIIAYWRYGSWLGAISCPICRQTVTLLLTVF
B6: RC3H2 RING domain (UniProt Q9HBD1); chain QAAQWTEFLSCPICYNEFDENVHKPISLGCSHTVCKTCLNKLHRKACPFDQTAINTDIDVL
B7: TRIM8 RING domain (UniProt Q9BZR9); chain WKNCFEEELICPICLHVFVEPVQLPCKHNFCRGCIGEAWAKDSGLVRCPECNQAYNQKPGLE
B8: UHRF2 RING domain (UniProt Q96PU4); chain CGGDPEKKCHSCSCRVCGGKHEPNMQLLCDECNVAYHIYCLNPPLDKVPEEEYWYCPSCKTDSSEVVKAGER
B9: CUL9 RING domain (UniProt Q8IWT3); chain AQAVPVRPDHCPVCVSPLGCDDDLPSLCCMHYCCKSCWNEYLTTRIEQNLVLNCTCPIADCPAQPTGAFIR
Residues (chain): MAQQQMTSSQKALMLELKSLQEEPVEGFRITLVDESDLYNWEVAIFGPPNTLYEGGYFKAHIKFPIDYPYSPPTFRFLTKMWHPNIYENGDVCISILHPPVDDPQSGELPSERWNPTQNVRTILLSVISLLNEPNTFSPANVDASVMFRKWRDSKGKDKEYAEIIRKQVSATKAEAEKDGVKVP
Sequence | lacZ reporter activity
PEELQAMDNVCIICREEMVTGAKRLPCNHIFHTSCLRSWFQRQQTCPTCRMDVLRASLPA (SYVN1 RING domain (UniProt Q86TM6)) | 0
DAIPSLSECQCGICMEILVEPVTLPCNHTLCKPCFQSTVEKASLCCPFCRRRVSSWTRYH (RNF168 RING domain (UniProt Q8IYW5)) | 0
B1 (PHF21A RING domain) | 0
FPEHFVKSISCQICEHILADPVETNCKHVFCRVCILRCLKVMGSYCPSCRYPCFPTDLES (RAG1 RING domain (UniProt P15918)) | 0
B2 (ZNF598 RING domain) | 0
B3 (TRIM69 RING domain) | 0
B4 (MID1 RING domain) | 0
QLQDIKEQTMCPVCLDRLKNMIFLCGHGTCQLCGDRMSECPICRKAIERRILLY (MIB1 RING domain (UniProt Q86YT6)) | 0
B5 (RNF170 RING domain) | 0
B6 (RC3H2 RING domain) | 0
B7 (TRIM8 RING domain) | 0
B8 (UHRF2 RING domain) | 0
FASPPDSNFVCSVCHGVLKRPARLPCSHIFCKKCILRWLARQKTCPCCRKEVKRKKVVH (RNF151 RING domain (UniProt Q2KHN1)) | 0
QLRRLQEERTCKVCMDKEVSIVFIPCGHLVVCKDCAPSLRKCPICRSTIKGTVRTF (BIRC3 RING domain (UniProt Q13489)) | 0
B9 (CUL9 RING domain) | 0
QLRRLQEERTCKVCMDKEVSVVFIPCGHLVVCQECAPSLRKCPICRGIIKGTVRTF (BIRC2 RING domain (UniProt Q13490)) | 0

Repeated from above (study 4):
Sequence | lacZ reporter activity
B2 (ZNF598 RING domain) | 0
QLRRLQEERTCKVCMDKEVSIVFIPCGHLVVCKDCAPSLRKCPICRSTIKGTVRTF (BIRC3 RING domain (UniProt Q13489)) | 0
B3 (TRIM69 RING domain) | 0
B1 (PHF21A RING domain) | 0
B8 (UHRF2 RING domain) | 0
